Published values pooled from the literature.
Parts stem from different laboratories: compare values within a part only. Values joined by “and” are separate records of one study, mostly repeats; a detail may differ.
UniProt Q06609, sequence (whole entry, looked up): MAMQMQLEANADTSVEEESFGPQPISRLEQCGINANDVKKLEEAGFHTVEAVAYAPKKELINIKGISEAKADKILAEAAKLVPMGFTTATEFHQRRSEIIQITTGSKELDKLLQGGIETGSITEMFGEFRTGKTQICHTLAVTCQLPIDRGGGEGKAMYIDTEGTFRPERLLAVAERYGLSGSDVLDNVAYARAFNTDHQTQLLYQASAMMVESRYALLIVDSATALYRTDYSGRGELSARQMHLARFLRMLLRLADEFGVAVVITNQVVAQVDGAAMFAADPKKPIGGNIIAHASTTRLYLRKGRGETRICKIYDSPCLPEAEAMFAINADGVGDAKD
UniProt P27361, sequence (whole entry, looked up): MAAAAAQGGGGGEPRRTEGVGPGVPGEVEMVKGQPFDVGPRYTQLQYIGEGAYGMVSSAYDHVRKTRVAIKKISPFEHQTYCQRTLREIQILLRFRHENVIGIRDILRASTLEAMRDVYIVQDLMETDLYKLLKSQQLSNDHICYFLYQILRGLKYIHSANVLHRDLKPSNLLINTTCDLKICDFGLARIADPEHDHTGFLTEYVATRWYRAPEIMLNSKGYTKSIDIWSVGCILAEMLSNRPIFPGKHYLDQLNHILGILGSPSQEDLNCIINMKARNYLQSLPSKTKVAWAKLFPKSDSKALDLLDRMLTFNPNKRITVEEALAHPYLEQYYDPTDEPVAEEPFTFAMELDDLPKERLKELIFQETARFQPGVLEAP
UniProt O94768, sequence (whole entry, looked up): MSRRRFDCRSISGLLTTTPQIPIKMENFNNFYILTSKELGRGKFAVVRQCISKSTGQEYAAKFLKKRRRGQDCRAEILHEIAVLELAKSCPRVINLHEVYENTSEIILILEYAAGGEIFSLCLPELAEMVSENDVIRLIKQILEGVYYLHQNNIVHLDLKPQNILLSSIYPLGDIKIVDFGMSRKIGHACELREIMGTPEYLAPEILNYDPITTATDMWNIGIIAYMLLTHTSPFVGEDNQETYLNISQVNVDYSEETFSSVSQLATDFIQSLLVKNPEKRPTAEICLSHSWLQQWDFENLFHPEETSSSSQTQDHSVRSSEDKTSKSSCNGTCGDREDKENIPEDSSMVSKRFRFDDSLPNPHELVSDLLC
UniProt O43683, sequence (whole entry, looked up): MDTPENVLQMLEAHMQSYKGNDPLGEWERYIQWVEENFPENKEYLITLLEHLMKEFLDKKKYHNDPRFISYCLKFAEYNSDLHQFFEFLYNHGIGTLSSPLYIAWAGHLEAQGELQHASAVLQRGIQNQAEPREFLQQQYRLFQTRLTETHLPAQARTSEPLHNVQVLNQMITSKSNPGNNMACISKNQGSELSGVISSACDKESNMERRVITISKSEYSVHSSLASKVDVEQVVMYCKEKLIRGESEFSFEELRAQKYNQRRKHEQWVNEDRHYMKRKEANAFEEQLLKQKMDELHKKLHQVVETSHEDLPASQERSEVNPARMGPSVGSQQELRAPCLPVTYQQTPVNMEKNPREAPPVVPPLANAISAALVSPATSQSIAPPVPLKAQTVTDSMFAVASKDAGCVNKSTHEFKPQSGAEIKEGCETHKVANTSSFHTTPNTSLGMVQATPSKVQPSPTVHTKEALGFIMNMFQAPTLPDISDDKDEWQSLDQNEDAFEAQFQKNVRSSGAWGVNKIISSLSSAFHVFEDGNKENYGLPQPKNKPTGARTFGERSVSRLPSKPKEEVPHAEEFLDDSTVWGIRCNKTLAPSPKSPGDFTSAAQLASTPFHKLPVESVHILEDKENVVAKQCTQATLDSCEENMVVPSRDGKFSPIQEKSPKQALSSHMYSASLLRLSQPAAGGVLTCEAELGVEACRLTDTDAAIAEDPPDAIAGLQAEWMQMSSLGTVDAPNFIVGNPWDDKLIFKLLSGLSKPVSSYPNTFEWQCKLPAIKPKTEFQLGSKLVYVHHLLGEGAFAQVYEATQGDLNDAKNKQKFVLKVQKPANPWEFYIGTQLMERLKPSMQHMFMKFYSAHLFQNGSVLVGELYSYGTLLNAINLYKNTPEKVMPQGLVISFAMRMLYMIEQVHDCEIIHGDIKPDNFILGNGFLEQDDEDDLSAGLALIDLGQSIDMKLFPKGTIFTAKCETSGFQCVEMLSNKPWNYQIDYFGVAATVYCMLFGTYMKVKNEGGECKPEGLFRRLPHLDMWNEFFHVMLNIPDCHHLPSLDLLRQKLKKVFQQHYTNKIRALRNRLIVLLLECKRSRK
UniProt Q9HCP0, sequence (whole entry, looked up): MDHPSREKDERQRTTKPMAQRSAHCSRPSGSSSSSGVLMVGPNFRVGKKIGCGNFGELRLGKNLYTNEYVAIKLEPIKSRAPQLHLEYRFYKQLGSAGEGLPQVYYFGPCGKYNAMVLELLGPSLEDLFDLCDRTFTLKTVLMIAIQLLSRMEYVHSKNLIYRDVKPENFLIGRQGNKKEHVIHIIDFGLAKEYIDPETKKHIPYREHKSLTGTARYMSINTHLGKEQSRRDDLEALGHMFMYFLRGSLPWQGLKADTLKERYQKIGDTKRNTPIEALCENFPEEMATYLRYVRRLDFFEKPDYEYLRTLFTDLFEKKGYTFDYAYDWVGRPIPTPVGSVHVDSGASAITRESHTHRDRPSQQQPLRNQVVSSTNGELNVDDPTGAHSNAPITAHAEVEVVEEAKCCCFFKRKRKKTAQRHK
UniProt Q8NFD2, sequence (whole entry, looked up): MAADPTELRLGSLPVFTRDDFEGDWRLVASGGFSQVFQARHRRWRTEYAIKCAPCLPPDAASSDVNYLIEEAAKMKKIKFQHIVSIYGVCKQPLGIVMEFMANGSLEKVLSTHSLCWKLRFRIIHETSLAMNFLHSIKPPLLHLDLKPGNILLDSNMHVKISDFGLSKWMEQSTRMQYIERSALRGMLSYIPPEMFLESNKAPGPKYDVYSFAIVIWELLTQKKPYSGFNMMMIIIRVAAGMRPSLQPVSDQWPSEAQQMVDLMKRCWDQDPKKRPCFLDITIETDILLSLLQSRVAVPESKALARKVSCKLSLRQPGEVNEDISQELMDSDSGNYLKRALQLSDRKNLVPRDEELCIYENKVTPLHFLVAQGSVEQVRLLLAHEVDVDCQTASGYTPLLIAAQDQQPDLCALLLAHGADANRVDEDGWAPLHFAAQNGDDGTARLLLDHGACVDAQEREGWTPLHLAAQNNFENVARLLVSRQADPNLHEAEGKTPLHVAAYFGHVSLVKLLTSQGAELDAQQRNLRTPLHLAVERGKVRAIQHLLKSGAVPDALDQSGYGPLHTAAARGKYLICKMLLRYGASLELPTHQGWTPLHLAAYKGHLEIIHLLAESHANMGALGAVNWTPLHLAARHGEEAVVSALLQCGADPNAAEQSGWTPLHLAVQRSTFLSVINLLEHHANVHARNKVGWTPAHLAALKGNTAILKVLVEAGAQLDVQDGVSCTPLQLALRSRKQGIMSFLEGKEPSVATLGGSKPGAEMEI
UniProt P50613, sequence (whole entry, looked up): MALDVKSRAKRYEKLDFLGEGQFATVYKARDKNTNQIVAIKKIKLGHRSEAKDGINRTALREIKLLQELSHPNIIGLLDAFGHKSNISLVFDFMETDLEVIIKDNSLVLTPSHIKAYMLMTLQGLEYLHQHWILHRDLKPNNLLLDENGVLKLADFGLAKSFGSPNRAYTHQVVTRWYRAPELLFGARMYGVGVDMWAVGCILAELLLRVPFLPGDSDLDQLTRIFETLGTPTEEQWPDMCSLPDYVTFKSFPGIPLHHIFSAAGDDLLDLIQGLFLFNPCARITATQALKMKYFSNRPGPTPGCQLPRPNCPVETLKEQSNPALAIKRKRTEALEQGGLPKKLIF
UniProt Q6P2M8, sequence (whole entry, looked up): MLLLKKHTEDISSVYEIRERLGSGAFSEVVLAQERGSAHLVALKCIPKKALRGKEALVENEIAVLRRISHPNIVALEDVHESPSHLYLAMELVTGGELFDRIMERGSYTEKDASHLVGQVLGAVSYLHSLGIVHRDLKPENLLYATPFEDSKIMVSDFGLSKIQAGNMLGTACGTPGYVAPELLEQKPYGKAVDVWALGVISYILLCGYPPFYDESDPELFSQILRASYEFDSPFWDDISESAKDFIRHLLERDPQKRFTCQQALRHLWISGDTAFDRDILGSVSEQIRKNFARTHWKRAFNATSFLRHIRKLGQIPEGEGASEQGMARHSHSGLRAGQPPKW

Study 1 — organism: Sarcocystis neurona; read-out: parasite growth; tested at: 10 µM; time: 96 h; notes: first screen; baseline: untreated
For `COc1ccc2cc(CCC(C)=O)ccc2c1`, “log2 fold change” read 1.88.
For `CC[N+](C)(C)c1cccc(O)c1`, “log2 fold change” read 0.26.
For `O=C1CCc2ccc(OCCCCN3CCN(c4cccc(Cl)c4Cl)CC3)cc2N1`, “log2 fold change” read -0.4.
For `CCOC(=O)C1=C(C)NC(C)=C(C(=O)OCC)C1c1ccccc1/C=C/C(=O)OC(C)(C)C`, “log2 fold change” read -1.41.
Under “log2 fold change”, `NS(=O)(=O)c1cc2c(cc1Cl)N=CNS2(=O)=O` is recorded as -0.0357.
`C/C(=C\C(=O)OCCCCCCCCC(=O)O)C[C@@H]1OC[C@H](C[C@@H]2O[C@H]2[C@@H](C)[C@H](C)O)[C@@H](O)[C@H]1O` — result for “log2 fold change”: -0.16.

Study 2 — species: mouse; medium: microsomes or S9; tested at: 2 µM; time: 0.5 h
The remaining compound of `COc1ccc(C2=C(c3ccc(F)cc3F)c3ccc(OCCCN4CCN(S(C)(=O)=O)CC4)cc3C2=O)cn1` is reported as 14.3%.
`CCCN1C(=O)C2(C(C(=O)c3ccc4c(c3)CC(C)O4)=C(O)C(=O)N2CC2CCCO2)c2ccccc21` (stereo not drawn) gave a remaining compound of 47.8%.
`O=C(Nc1ccc(Cl)cn1)c1c2c(nc3ccccc13)C(=O)N(C1CCCCC1)C2` gave a remaining compound of 8.13%.
`c1ccc(/N=c2/nc(N3CCN(C(c4ccccc4)c4ccccc4)CC3)nc(Nc3ccccc3)[nH]2)cc1` has a remaining compound of greater than 99%.
With `CC1Cc2ccccc2N1C(=O)c1ccc(=O)n(CCC(=O)N2CCN(c3ccccn3)CC2)n1` (stereo not drawn) the remaining compound was 0.366%.
For `CC(Cc1ccccc1)NC(=O)C1CCCNC1=O` (stereo not drawn), the remaining compound was 85%.
`Cc1n[nH]c(=O)c(C(=O)NC2CCc3nc(C(C)(C)C)cn3C2)c1C` (stereo not drawn) has a remaining compound of 94.8%.
The remaining compound of `CCn1cc(N(CC(C)C)C(=O)c2nncc3ccccc23)cn1` is reported as 65.8%.
`O=C(Nc1nncn1-c1ccccc1)c1cnc2ccccn12` gave a remaining compound of 29.3%.

Study 3 — read-out: cell-free assay; method: competition with immobilised ligand; tested at: 1 µM
SMILES: CN(C(=O)c1ccccc1)c1cc(N(C)c2ccc3c(c2)CCc2ccc(C(=O)NCCN4CCOCC4)cc2C3=O)ccc1F
The remaining binding was 59% (Serine/threonine-protein kinase B-raf (BRAF, Homo sapiens, UniProt P15056)).
For Mitogen-activated protein kinase 3 (MAPK3, Homo sapiens, UniProt P27361): remaining binding read 88%.
Serine/threonine-protein kinase 17B (STK17B, Homo sapiens, UniProt O94768) — remaining binding: 100%.
The remaining binding was 100% (Ribosomal protein S6 kinase alpha-5, C-terminal kinase domain (RPS6KA5, Homo sapiens, UniProt O75582)).
For Calcium/calmodulin-dependent protein kinase type 1B (PNCK, Homo sapiens, UniProt Q6P2M8): remaining binding read 86%.
The remaining binding was 100% (Cyclin-dependent kinase 7 (CDK7, Homo sapiens, UniProt P50613)).
The remaining binding was 100% (Mitotic checkpoint serine/threonine-protein kinase BUB1 (BUB1, Homo sapiens, UniProt O43683)).
Serine/threonine-protein kinase Chk1 (CHEK1, Homo sapiens, UniProt O14757) — remaining binding: 98%.
Casein kinase I isoform gamma-1 (CSNK1G1, Homo sapiens, UniProt Q9HCP0) — remaining binding: 100%.
The remaining binding was 97% (Ankyrin repeat and protein kinase domain-containing protein 1 (ANKK1, Homo sapiens, UniProt Q8NFD2)).

Study 4 — read-out: enzyme activity; mode: inhibitor; tested at: 0.5 µM; baseline: control
Target: Tyrosine-protein kinase receptor UFO (AXL, Homo sapiens, UniProt P30530)
UniProt P30530, sequence (whole entry, looked up): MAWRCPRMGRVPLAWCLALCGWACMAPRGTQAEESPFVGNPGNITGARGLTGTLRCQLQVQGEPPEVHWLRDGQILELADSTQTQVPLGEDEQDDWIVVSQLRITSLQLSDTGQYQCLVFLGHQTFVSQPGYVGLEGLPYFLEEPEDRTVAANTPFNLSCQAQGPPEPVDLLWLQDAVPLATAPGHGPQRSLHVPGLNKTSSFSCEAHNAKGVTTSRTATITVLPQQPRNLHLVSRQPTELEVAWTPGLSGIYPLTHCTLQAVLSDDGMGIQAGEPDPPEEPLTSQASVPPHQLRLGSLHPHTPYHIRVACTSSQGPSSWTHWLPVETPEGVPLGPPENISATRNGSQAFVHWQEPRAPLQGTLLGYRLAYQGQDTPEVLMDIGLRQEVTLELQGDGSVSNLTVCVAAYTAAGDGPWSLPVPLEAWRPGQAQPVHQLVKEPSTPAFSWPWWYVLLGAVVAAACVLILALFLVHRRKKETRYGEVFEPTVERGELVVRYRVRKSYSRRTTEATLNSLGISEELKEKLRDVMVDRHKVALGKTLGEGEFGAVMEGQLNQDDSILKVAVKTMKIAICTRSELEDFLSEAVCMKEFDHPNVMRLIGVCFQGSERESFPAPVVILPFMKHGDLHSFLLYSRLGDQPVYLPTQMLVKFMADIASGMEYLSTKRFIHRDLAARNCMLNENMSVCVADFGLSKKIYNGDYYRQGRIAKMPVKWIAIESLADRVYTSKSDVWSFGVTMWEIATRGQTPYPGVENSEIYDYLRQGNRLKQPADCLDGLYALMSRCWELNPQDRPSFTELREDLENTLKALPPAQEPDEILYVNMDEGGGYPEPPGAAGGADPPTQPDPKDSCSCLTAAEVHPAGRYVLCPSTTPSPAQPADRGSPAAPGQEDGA
`COc1cc2ncnc(Nc3ccc(Oc4ccccc4)cc3)c2cc1OC` gave a remaining activity of 98.2%.
`O=C(Nc1cccc(Nc2cc(Nc3cccc(C(F)(F)F)c3)ncn2)c1)C1CC1` has a remaining activity of 98.7%.
The remaining activity of `Nc1ccc2ncnc(NCCc3ccc(Oc4ccccc4)cc3)c2c1` is reported as 96.1%.
`Nc1ncnc2n[nH]c(Nc3ccc(F)cc3)c12` gave a remaining activity of 45.4%.
With `O=C1NC(=O)C(c2cn(CCCn3ccnc3)c3ccccc23)=C1Nc1ccccc1` the remaining activity was 98.8%.
For `CC(C)[C@H](CO)Nc1nc(Nc2cc(N)cc(Cl)c2)c2ncn(C(C)C)c2n1`, the remaining activity was 93.1%.
With `OCC(O)CCON=C1C(c2c(O)[nH]c3ccccc23)=Nc2ccccc21` (stereo not drawn) the remaining activity was 42.7%.
`Cn1sc(=O)n(Cc2ccccc2)c1=O` gave a remaining activity of 96.9%.
`CN(C)c1ccc(C=C2C(=O)Nc3ccccc32)cc1` gave a remaining activity of 93.8%.
`O=C1NC(=O)C(c2cn(CCCO)c3ncccc23)=C1c1cnccn1` gave a remaining activity of 104%.
For `CNC(=O)c1cc(Oc2ccc(NC(=O)Nc3ccc(Cl)c(C(F)(F)F)c3)cc2)ccn1`, the remaining activity was 105%.
`COc1ccc(OC)c2c(=S)c3ccccc3[nH]c12` has a remaining activity of 103%.
With `Cc1ccc(NC(=O)c2ccc(CN3CCN(C)CC3)cc2)cc1Nc1nc(-c2cccnc2)cs1` the remaining activity was 86.5%.
For `CCOC(=O)c1c(C)[nH]c(/C=C2\C(=O)Nc3ccccc32)c1C`, the remaining activity was 88.9%.
`Oc1ccc(-c2nc(-c3ccncc3)c(-c3ccc(F)cc3)[nH]2)cc1` has a remaining activity of 99.8%.
`Nc1[nH]nc2nc3ccccc3nc12` has a remaining activity of 91.2%.
`Cc1nc(-c2ccccc2)c(-c2ccncc2)o1` has a remaining activity of 91.1%.
For `O=S(=O)(c1cccc2cnccc12)N1CCCNCC1`, the remaining activity was 97.2%.
`COc1cc2ncnc(Nc3ccc(F)c(Cl)c3)c2cc1OCCCN1CCOCC1` gave a remaining activity of 88.8%.
`N#CC(C#N)=C(N)/C(C#N)=C/c1ccc(O)cc1` has a remaining activity of 93.7%.
For `COc1ccc(CNC(=O)Nc2ncc([N+](=O)[O-])s2)cc1`, the remaining activity was 92%.
With `C#Cc1cccc(Nc2ncnc3cc(OCCOC)c(OCCOC)cc23)c1` the remaining activity was 72.5%.
With `CO[C@H]1C[C@@H]2CC[C@@H](C)[C@@](O)(O2)C(=O)C(=O)N2CCCC[C@H]2C(=O)O[C@H]([C@H](C)C[C@@H]2CC[C@@H](O)[C@H](OC)C2)CC(=O)[C@H](C)/C=C(\C)[C@@H](O)[C@@H](OC)C(=O)[C@H](C)C[C@H](C)/C=C/C=C/C=C/1C` the remaining activity was 99.5%.
The remaining activity of `O=C(CCCc1ccc(-c2ccccc2F)cc1)Nc1ccc(O)cc1` is reported as 91.4%.
With `Cn1c2ccccc2c2c3c(c4c5ccccc5n(CCC#N)c4c21)CNC3=O` the remaining activity was 102%.

Other studies, line by line
The remaining activity of `CO[C@@H]1[C@@H](OC(N)=O)[C@@H](O)[C@H](Oc2ccc3c(O)c(NC(=O)c4ccc(O)c(CC=C(C)C)c4)c(=O)oc3c2C)OC1(C)C` is reported as 77.9% and 75.1% and 64.5% and 69.9% and 73.8% (DNA repair protein RAD51 homolog 1 (RAD51, Homo sapiens, UniProt Q06609); ATPase activity, ADP-Glo; 100 µM; baseline: DMSO).

Some of these lines once more (study 3):
Serine/threonine-protein kinase Chk1 (CHEK1, Homo sapiens, UniProt O14757) — remaining binding: 98%.
For Calcium/calmodulin-dependent protein kinase type 1B (PNCK, Homo sapiens, UniProt Q6P2M8): remaining binding read 86%.
Casein kinase I isoform gamma-1 (CSNK1G1, Homo sapiens, UniProt Q9HCP0) — remaining binding: 100%.
The remaining binding was 100% (Mitotic checkpoint serine/threonine-protein kinase BUB1 (BUB1, Homo sapiens, UniProt O43683)).
For Mitogen-activated protein kinase 3 (MAPK3, Homo sapiens, UniProt P27361): remaining binding read 88%.
